Measurements gathered from unrelated publications.
A part holds a random share of what one study measured. Changes are numbered by the printed parent chain.

Study 1
Target: CCNF, cyclin fold, Cln2 fusion (human)
Method: yeast growth competition, sequencing
Sample: yeast
Setting: strong parent motif
Reference: not given
Reading: higher = stronger binding
Endpoint: normalised enrichment score
Parent: viral docking peptide; TSVRRALFTGGSD
V3K: 1.2
V3W: 3.22
G11R: 8.4
G10K: 8.5
L7S: -0.544
R5D: -0.217
G11H: 8.46
V3H: 3.08
F8K: 0.511
G11S: 8.08
R4M: 5.46
G10E: 8.14
A6E: 6.86

Study 2
Target: UDP-N-acetylglucosamine--peptide N-acetylglucosaminyltransferase 110 kDa subunit (OGT, Homo sapiens, UniProt O15294)
UniProt O15294, sequence (whole entry, looked up): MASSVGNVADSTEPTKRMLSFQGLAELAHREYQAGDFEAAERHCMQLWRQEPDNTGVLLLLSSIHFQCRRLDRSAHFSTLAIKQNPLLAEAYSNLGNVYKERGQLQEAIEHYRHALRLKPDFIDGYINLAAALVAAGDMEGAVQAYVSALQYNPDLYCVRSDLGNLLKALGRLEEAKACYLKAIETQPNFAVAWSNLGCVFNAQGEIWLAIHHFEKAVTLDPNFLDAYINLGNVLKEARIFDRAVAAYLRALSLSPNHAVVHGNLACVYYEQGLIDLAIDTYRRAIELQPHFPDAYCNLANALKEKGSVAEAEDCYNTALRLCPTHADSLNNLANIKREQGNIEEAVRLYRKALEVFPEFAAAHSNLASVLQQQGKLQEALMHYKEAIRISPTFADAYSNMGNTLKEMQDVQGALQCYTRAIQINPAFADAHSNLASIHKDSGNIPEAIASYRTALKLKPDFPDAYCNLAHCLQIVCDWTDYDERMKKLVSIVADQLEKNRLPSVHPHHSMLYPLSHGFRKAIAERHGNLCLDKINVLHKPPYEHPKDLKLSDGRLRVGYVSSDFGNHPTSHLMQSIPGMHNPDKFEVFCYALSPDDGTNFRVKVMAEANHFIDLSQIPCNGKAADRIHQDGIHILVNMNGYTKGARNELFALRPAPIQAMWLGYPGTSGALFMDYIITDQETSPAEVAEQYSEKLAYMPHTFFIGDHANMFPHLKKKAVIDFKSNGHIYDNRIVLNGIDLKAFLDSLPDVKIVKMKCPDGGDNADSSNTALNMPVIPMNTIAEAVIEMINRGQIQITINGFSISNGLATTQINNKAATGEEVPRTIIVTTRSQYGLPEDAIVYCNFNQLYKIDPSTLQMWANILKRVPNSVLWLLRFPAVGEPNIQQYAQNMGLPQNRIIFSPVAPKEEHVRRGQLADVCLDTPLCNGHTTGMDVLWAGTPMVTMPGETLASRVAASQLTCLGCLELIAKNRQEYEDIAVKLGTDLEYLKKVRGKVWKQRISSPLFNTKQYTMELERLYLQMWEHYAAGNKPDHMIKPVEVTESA
Read-out: binding
Method: phage display NGS
Form: peptide
Reference: input library
Endpoint: minimum log2 enrichment ratio
SRSHPVEQPVNFQHH: 1.59
HVWSSKYSMHHQSSI: 2.1
AGGALFSPHYQIVI: 3.55
HFYTPHFHYEHARFQ: 1.41
HWFPTHTHYFMRHTS: 3.26
HIHKRDTHWAWYTIG: 1.69
FPHHPQDHMRLNVFT: 1.64
QPYFLPKYVITVDNS: 3.08
SVFVHMQHRHGPHY: 3.88
SYNHRHSTSYHIDHR: 2.87
QPSRQHHAEHHPWHR: 3.19

Study 3
Target: Sal-like protein 4, full length isoform A (SALL4, Homo sapiens, UniProt Q9UJQ4, residues 1-1053)
UniProt Q9UJQ4, sequence (whole entry, looked up): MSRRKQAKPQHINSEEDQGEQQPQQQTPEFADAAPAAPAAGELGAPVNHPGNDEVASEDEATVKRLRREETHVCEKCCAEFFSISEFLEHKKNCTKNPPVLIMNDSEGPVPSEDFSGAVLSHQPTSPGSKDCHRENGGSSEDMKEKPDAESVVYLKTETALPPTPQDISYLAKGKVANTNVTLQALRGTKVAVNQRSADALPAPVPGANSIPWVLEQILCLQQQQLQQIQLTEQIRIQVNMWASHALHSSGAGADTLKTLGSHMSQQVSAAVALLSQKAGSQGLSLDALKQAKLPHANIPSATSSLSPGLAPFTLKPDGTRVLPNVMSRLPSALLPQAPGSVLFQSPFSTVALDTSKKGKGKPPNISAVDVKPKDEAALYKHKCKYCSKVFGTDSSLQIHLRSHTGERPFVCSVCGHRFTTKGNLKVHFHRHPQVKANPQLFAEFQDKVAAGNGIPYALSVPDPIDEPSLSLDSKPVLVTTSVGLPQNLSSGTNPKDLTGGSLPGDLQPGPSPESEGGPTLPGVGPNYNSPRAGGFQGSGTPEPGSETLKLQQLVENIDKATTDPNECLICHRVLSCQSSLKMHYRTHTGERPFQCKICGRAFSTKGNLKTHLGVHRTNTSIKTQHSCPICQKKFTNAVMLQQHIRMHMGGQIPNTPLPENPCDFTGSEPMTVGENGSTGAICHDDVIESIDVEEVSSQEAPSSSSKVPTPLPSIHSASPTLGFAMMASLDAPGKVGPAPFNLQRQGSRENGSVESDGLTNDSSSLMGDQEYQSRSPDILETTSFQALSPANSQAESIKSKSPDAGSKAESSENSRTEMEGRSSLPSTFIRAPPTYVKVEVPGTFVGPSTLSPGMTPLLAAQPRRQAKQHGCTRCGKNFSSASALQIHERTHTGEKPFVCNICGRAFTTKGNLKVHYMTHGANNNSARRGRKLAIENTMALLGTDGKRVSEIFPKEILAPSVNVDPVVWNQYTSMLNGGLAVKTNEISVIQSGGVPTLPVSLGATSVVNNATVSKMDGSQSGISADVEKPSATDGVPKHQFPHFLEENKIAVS
Method: universal PBM
Form: double-stranded DNA, one strand shown
Sample: in vitro
Concentration: 600 nM
Setting: 8-mer, flanks averaged, mean of replicates
Reading: higher = stronger binding
Endpoint: E-score
GATGAAGC: -0.0827
CGAACGCC: -0.349
CCCCTCGC: -0.192
TCACAAAA: 0.152
ACGGCGAT: -0.0599
CAAGGCTC: -0.277
GATTTAGA: 0.141
CCGTCCAA: -0.0437

Study 4
Target: inorganic phosphate, free oxyanion
Method: microfluidic competitive inhibition
Sample: in vitro, cell-free expressed
Concentration: not given
Setting: derived from inhibition constants, unchanged parent 615000 nM
Reading: lower = stronger binding
Endpoint: phosphate dissociation constant
Parent: PafA, mature enzyme, eGFP fusion (Elizabethkingia meningoseptica, UniProt Q9KJX5); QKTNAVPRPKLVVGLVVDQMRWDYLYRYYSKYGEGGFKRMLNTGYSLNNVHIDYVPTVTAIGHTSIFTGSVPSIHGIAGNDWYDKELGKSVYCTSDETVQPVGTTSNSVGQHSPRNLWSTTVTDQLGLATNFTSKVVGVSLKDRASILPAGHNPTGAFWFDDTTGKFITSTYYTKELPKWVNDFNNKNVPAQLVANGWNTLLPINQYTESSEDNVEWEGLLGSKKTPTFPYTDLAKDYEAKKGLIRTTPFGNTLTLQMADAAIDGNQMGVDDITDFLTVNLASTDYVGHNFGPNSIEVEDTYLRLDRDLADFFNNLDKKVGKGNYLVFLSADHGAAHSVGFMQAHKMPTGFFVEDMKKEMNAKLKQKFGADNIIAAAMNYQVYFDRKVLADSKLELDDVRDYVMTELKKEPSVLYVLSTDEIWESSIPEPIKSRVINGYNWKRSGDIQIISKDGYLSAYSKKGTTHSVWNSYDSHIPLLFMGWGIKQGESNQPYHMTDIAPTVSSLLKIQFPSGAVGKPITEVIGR
V399A: 654 µM
I447G: 620 µM
K462G: 477 µM
S505G: 578 µM
G484A: 606 µM
L478V: 673 µM
L15V: 673 µM
D317V: 446 µM
V16G: 204 µM

Some of these lines once more (study 4):
V399A: 654 µM
I447G: 620 µM
K462G: 477 µM
S505G: 578 µM
G484A: 606 µM
L478V: 673 µM
L15V: 673 µM
